{"data": "Published values gathered from unrelated publications", "Matrix protein 2": "Matrix protein 2 (Influenza A virus, UniProt P0DOF5)", "1-deoxy-D-xylulose-5-phosphate synthase": "1-deoxy-D-xylulose-5-phosphate synthase (Mycobacterium tuberculosis, UniProt P9WNS3)", "lasR": "Transcriptional activator protein LasR (lasR, Pseudomonas aeruginosa, UniProt P25084)", "note": "Lines come from different studies, so protocols differ.", "chain of UniProt P0DOF5 (whole entry, looked up)": "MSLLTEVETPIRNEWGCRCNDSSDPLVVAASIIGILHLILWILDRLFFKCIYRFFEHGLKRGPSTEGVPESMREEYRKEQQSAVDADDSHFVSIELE", "chain of UniProt P25084 (whole entry, looked up)": "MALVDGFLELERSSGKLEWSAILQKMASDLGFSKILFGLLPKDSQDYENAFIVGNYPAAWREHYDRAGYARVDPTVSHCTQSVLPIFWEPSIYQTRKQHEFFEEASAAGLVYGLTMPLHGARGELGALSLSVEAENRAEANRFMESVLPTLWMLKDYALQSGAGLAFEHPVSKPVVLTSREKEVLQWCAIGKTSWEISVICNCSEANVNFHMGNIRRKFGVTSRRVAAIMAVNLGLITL", "chain of UniProt P9WNS3 (whole entry, looked up)": "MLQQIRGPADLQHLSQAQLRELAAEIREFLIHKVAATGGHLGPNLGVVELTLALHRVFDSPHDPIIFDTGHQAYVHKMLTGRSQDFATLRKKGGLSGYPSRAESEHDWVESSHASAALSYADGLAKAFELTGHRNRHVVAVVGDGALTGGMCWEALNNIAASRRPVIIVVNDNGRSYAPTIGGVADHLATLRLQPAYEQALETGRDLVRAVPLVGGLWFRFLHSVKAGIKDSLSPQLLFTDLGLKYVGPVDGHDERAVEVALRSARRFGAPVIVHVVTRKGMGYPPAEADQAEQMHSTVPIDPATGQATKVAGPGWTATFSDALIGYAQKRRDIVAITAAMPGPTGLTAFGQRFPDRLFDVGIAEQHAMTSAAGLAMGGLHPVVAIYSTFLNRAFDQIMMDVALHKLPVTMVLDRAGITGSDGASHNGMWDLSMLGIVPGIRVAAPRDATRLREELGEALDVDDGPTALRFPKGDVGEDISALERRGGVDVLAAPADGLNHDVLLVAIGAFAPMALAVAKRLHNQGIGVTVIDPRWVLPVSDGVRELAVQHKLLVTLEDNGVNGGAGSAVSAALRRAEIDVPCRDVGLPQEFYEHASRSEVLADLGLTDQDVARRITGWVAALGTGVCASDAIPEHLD", "chain of UniProt P9WGM7 (whole entry, looked up)": "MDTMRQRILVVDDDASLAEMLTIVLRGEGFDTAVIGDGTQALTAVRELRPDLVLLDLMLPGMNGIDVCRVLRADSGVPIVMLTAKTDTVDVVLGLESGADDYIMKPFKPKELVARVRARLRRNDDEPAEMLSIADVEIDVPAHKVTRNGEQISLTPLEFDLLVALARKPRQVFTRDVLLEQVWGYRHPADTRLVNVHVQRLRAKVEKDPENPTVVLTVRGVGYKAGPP", "chain of UniProt P68400 (whole entry, looked up)": "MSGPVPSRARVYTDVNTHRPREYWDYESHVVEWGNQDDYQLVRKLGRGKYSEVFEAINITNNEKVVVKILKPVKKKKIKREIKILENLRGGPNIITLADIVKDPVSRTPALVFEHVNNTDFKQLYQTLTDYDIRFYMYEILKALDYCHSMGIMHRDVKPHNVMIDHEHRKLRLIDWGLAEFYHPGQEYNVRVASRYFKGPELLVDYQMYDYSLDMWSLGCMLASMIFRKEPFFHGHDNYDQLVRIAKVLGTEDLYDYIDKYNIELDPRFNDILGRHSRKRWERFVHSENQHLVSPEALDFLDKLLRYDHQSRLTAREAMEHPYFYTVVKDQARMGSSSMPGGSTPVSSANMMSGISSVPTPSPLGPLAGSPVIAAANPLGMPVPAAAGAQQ", "chain of UniProt P27487 (whole entry, looked up)": "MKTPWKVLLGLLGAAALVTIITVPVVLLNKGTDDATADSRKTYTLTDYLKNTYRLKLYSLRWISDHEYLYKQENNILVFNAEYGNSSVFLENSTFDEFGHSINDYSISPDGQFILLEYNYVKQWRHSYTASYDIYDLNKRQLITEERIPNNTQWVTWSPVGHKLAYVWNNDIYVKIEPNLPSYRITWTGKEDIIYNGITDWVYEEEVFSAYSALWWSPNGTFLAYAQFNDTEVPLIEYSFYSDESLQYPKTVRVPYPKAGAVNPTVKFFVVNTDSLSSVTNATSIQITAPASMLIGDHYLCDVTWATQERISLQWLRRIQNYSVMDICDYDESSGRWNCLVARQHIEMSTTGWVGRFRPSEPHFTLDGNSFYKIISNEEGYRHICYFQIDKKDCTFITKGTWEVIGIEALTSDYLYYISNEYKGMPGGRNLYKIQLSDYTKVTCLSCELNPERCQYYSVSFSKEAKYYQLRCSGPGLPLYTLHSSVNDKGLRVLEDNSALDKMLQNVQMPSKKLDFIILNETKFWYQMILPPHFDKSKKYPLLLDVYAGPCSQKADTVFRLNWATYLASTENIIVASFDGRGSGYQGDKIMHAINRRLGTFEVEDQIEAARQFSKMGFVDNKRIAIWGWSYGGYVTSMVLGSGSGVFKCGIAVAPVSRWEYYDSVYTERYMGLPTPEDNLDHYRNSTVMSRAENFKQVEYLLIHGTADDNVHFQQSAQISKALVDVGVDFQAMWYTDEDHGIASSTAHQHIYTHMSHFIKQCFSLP", "chain of UniProt P22310 (whole entry, looked up)": "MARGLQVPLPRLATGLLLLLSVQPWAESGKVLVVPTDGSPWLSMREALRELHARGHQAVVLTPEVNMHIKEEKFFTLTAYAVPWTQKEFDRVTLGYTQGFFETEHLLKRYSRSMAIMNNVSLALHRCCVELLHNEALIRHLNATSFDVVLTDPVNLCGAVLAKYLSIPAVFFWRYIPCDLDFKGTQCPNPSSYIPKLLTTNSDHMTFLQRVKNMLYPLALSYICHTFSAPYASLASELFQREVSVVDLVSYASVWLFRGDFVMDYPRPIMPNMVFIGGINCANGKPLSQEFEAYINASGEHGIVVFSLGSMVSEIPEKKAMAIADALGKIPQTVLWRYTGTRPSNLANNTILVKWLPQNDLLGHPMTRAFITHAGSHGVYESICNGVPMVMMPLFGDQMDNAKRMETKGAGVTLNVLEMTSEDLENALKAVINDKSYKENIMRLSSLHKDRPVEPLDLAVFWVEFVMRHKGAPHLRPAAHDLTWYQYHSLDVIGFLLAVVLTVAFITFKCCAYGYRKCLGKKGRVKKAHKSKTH", "chain of UniProt P9WIB9 (whole entry, looked up)": "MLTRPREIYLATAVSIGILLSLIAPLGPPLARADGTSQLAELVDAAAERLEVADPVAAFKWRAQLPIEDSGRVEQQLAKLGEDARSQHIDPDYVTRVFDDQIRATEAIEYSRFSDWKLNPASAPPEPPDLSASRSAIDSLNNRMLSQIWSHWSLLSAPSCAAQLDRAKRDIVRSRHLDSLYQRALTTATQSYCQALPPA"}
{"SMILES": "Cc1ccsc1CNC12CC3CC(CC(C3)C1)C2", "target": "Matrix protein 2", "test": "ion current, two-electrode voltage clamp", "conditions": "100 µM", "inhibition": "71%"}
{"SMILES": "O=C1c2ccccc2-c2c1c1c(O)cccc1n2Cc1ccccc1", "target": "Casein kinase II subunit alpha, with CK2 beta subunit (CSNK2A1, Homo sapiens, UniProt P68400)", "conditions": "10 µM", "inhibition": "20%"}
{"SMILES": "O=C(CSc1nc2ccccc2[nH]1)N/N=C/c1cc2c(s1)CCCC2", "target": "1-deoxy-D-xylulose-5-phosphate synthase", "test": "enzyme activity, inhibitor", "conditions": "120 µM", "inhibition": "44%"}
{"SMILES": "CCC1(CC)C2CC3CC(C2)CC1(NC)C3", "target": "Matrix protein 2", "test": "enzyme activity, inhibitor", "conditions": "100 µM, pH 5.5", "inhibition": "15%"}
{"SMILES": "CCCCCc1cc(O)c2c(c1)OC(C)(C)C1CCC(C)=CC21 (single isomer, unassigned; (-))", "target": "UDP-glucuronosyltransferase 1A4 (UGT1A4, Homo sapiens, UniProt P22310)", "test": "trifluoperazine glucuronidation", "system": "recombinant microsomes", "conditions": "10 or 100 µM, together with: trifluoperazine", "inhibition": "no inhibition"}
{"SMILES": "CS(=O)(=O)n1c(CN2C(=O)C(=O)c3ccccc32)cc2ccccc21", "target": "Secreted chorismate mutase (Rv1885c, Mycobacterium tuberculosis, UniProt P9WIB9)", "test": "enzyme activity, inhibitor", "conditions": "30 µM", "inhibition": "70.3%"}
{"SMILES": "CCCCCc1cc(O)c2c(c1)OC(C)(C)[C@@H]1CCC(C)=C[C@@H]21", "target": "Dipeptidyl peptidase 4 (DPP4, Homo sapiens, UniProt P27487)", "test": "enzyme activity, inhibitor, absorbance", "conditions": "40 µg/mL", "inhibition": "21.6%"}
{"SMILES": "CCc1ccc(CNC23CC4CC(CC(C4)C2)C3)s1", "target": "Matrix protein 2", "test": "ion current, two-electrode voltage clamp", "conditions": "100 µM", "inhibition": "48%"}
{"SMILES": "CN1CC23C4C5CC5C5C4C4C2C2CC2C4C53C1 (centres unmarked)", "target": "Matrix protein 2", "test": "enzyme activity, inhibitor", "conditions": "100 µM, pH 5.5", "inhibition": "27%"}
{"SMILES": "O=C(N/N=C/c1ncc[nH]1)c1cccs1", "target": "1-deoxy-D-xylulose-5-phosphate synthase", "test": "enzyme activity, inhibitor", "conditions": "120 µM", "inhibition": "16%"}
{"SMILES": "CCn1c2ccccc2c2cc(C(=O)c3ccc(C)c4ccccc34)ccc21", "target": "tubulin colchicine site", "test": "[3H]colchicine binding, competition binding", "system": "purified tubulin", "conditions": "5 µM", "inhibition": "53%"}
{"SMILES": "CC(C)(C)c1ncc(CNC23CC4CC(CC(C4)C2)C3)s1", "target": "Matrix protein 2", "test": "ion current, inhibitor, TEVC", "system": "Xenopus laevis oocytes", "conditions": "100 µM, 2 min, wild type", "inhibition": "inactive"}
{"SMILES": "CCCc1cn(-c2cccc(C(=O)N[C@H]3CCOC3=O)c2)nn1", "target": "lasR", "test": "reporter gene, antagonist", "conditions": "100 µM, together with: OdDHL 10 nM", "inhibition": "29%"}
{"SMILES": "COc1ccc(CNC23CC4CC(CC(C4)C2)C3)s1", "target": "Matrix protein 2", "test": "ion current, two-electrode voltage clamp", "conditions": "100 µM", "inhibition": "86%"}
{"SMILES": "CCCc1cn(-c2ccc(C(=O)N[C@H]3CCOC3=O)cc2)nn1", "target": "lasR", "test": "reporter gene, antagonist", "conditions": "10 µM, together with: OdDHL 10 nM", "inhibition": "12%"}
{"SMILES": "Ic1ccc(CNC23CC4CC(CC(C4)C2)C3)s1", "target": "Matrix protein 2", "test": "ion current, two-electrode voltage clamp", "conditions": "30 µM", "inhibition": "72%"}
{"SMILES": "O=S(=O)(O)CC1CSSCC(CS(=O)(=O)O)SS1 (centres unmarked)", "target": "DNA-binding response regulator MtrA, C-terminal domain (mtrA, Mycobacterium tuberculosis, UniProt P9WGM7)", "test": "DNA binding", "conditions": "100 µM", "inhibition": "> 50%"}
{"note": "Excerpt of the above:"}
{"SMILES": "O=C(N/N=C/c1ncc[nH]1)c1cccs1", "target": "1-deoxy-D-xylulose-5-phosphate synthase", "test": "enzyme activity, inhibitor", "conditions": "120 µM", "inhibition": "16%"}
